Measurements collected from several papers.
Each line is one published result; not all experiments were run side by side. ± marks the error that the study gave.

The tissue ratio of `CC(C)C[C@@H](NC(=O)[C@@H](CCCNC(=N)N)NC(=O)[C@@H](Cc1c[nH]cn1)NC(=O)[C@@H](Cc1c[nH]c2ccccc12)NC(=O)[C@@H](Cc1c[nH]cn1)NC(=O)[C@@H](Cc1ccccc1)NC(=O)[C@H](NC(=O)[C@@H](Cc1ccc(O)cc1)NC(=O)CNC(=O)CNC(=O)CCOCCOCCOCCNC(=O)CN1CCN(CC(=O)O)CCN(CC(=O)O)CC1)[C@H](C)O)C(=O)N[C@H](CC(N)=O)C(=O)N1CCC[C@@H]1C(=O)O` [gallium-68 labelled] is reported as 5.59 ± 0.83 (C57BL/6 mice, male; intravenous, 1.85 MBq, 60 min; baseline: tumour over blood).
For `O=C(O)CCn1c(=O)oc2cc(Cl)c(Cl)cc21`, the intrinsic clearance was < 0.5 mL/min/g (rat liver microsomes).
The solubility of `O=P([O-])([O-])Oc1ccc(-c2cc(=S)ss2)cc1.[Na+].[Na+]` is reported as ~2.1 mg/mL (HPLC; water; 25 °C).
For `CSCC[C@@H]1NC(=O)[C@@H]2CSSC[C@H](NC(=O)[C@H](CO)NC(=O)[C@H](C)N)C(=O)N[C@@H](CCCNC(=N)N)C(=O)N[C@@H]([C@@H](C)O)C(=O)N3CCC[C@H]3C(=O)N[C@@H](CCCCN)C(=O)N[C@@H](CC(=O)O)C(=O)N[C@H]3CSSC[C@H](NC(=O)[C@H](CCCCN)NC(=O)[C@H](CCCNC(=N)N)NC(=O)[C@H](CC(N)=O)NC1=O)C(=O)N[C@@H](CCCCN)C(=O)N[C@H]1CSSC[C@H](NC(=O)[C@@H]4CCCN4C(=O)[C@H](CC(=O)O)NC(=O)[C@H](C)NC3=O)C(=O)N[C@@H](C)C(=O)N[C@@H](CCCCN)C(=O)N[C@@H](CCC(=O)O)C(=O)N[C@@H]([C@@H](C)O)C(=O)NCC(=O)N[C@@H](CSSC[C@@H](C(N)=O)NC(=O)[C@H](CCCNC(=N)N)NC(=O)[C@H](CC(N)=O)NC1=O)C(=O)N1CCC[C@H]1C(=O)N[C@@H](Cc1ccc(O)cc1)C(=O)NCC(=O)N[C@@H](CCCCN)C(=O)N2`, the CO2 was 19 mmol/L (DA rat pristane-induced arthritis, serum; subcutaneous, 0.1 mg/kg single dose at onset, 21 days).
`CC(C)[C@H](NC(=O)CNC(=O)[C@H](CCC(N)=O)NC(=O)[C@H](C)N)C(=O)O` — result for “drug-related adverse events”: 0% (human; intravenous infusion, 45 mg/kg/h, 2 h, relatedness Possibly; baseline: subjects).
With `O=c1c2cc(Cl)ccc2sc2c(NCc3ccccc3)nc3ccccc3c12` the body weight was 24.95 ± 0.24 g (BALB/c nude mice; i.p., 20 mg/kg).
The hemolysis of `CC[C@H](C)[C@H](NC(=O)[C@H](CCCCN)NC(=O)[C@H](CCCCN)NC(=O)[C@H](Cc1ccccc1)NC(=O)[C@H](CC(C)C)NC(=O)[C@@H](CCCCN)NC(=O)[C@H](Cc1c[nH]c2ccccc12)NC(=O)[C@H](CCCCN)NC(C)=O)C(=O)NCC(=O)N[C@@H](C)C(=O)N[C@H](C(=O)N[C@@H](CC(C)C)C(=O)N[C@@H](CCCCN)C(=O)N[C@H](CCCCN)C(=O)N[C@@H](CC(C)C)C(N)=O)C(C)C` is reported as < 5% (human red blood cells; up to 64 µM, 1 h, 5% red blood cells).
`CC(C)[C@H](NC(=O)CNC(=O)[C@H](CCC(N)=O)NC(=O)[C@H](C)N)C(=O)O`: “discontinuation due to AE” 0% (healthy male volunteers; intravenous, 45 mg/kg/h, 2 h, with: LPS 2 ng/kg).
With `C/C=C/C=C/C/C=C/CCCCCCCc1cccc(O)c1O` the tissue concentration was 12700 ± 1680 ng/g (female Kunming mice, tumour-bearing, heart; intravenous, 10 mg/kg, 1 h).
`COc1cc(NC(=O)C(=O)c2c(C)n(Cc3ccc(Cl)cc3)c3ccc(C)cc23)ccn1` has a Tmax of 3.5 h (female cynomolgus monkey, plasma; oral, 10 mg/kg).
For `CC(=CCC(O)C(C)=Cc1csc(C)n1)CC=CC(C)C(O)C(C)C(=O)C(C)(C)C(O)CC(=O)O` (stereo not shown), the AUC ratio was 7.39 ± 2.01% (human, plasma; intravenous infusion, 42 mg/m2 KOS-1584, 3 h infusion, cycle 1; baseline: metabolite over KOS-1584).
`CCC(CC)OC1C=C(C(=O)OC(C)OC(=O)C(N)C(C)C)CC(NC(=N)N)C1NC(C)=O` (mixture of isomers) gave an AUC(0-24 h) of 3.1 ± 0.558 µg·h/mL (mice, plasma; po-fasted, 10 mg/kg, 24 h).
Under “subjects with adverse event”, `CC[C@@H]1C[C@]1(NC(=O)[C@@H]1C[C@@]2(CN1C(=O)[C@@H](NC(=O)[C@@H](NC(=O)[C@@H]1CCCCN1C(C)C)C1CCCCC1)C(C)(C)C)C(C)(C)C21CCC1)C(=O)NS(=O)(=O)N1CCCC1` is recorded as 0% (item: Nausea; healthy human; oral, 10 mg, with: ritonavir 100 mg).
`CCCC[C@H]1C(=O)N(C)[C@@H](CCCC)C(=O)N[C@@H](CCCNC(=O)CN2CCN(CC(=O)O)CCN(CC(=O)O)CCN(CC(=O)O)CC2)C(=O)N[C@H](C(=O)NCC(N)=O)CSCC(=O)N[C@@H](Cc2ccc(O)cc2)C(=O)N(C)[C@@H](C)C(=O)N[C@@H](CC(N)=O)C(=O)N2CCC[C@H]2C(=O)N[C@@H](Cc2c[nH]cn2)C(=O)N[C@@H](CC(C)C)C(=O)N(C)CC(=O)N[C@@H](Cc2c[nH]c3ccccc23)C(=O)N[C@@H](CO)C(=O)N[C@@H](Cc2c[nH]c3ccccc23)C(=O)N1C` [gallium-68 labelled] gave a radiochemical purity of > 90% (fetal bovine serum; 2 h, 37 °C).
For `CN[C@](C)(C[18F])C(=O)O`, the tissue uptake was 4.3 ± 1 %ID/g (SCID mouse A549 xenograft, spleen; 120 min, post injection).
For `Cc1ccc(OCC(=O)N(Cc2cccs2)c2ccn[nH]2)cc1`, “corpora lutea count” read 16.9 (Crl:CD(SD) rat, bred female; oral, 300 mg/kg/day, mean per litter, developmental toxicity).
`CC[C@H](C)[C@@H]1NC(=O)[C@H](CCCCN)NC(=O)[C@H](CCCCN)NC(=O)[C@H](Cc2ccc(O)cc2)NC(=O)[C@H](CC(C)C)NC(=O)[C@@H]2CCCN2C(=O)[C@H](C)NC(=O)CNC(=O)CNC(=O)[C@H](CO)NC(=O)CNC(=O)CNC(=O)[C@H](CO)NC(=O)[C@H](CCC(=O)O)NC(=O)[C@H](CC(C)C)NC(=O)[C@H](CC(C)C)NC(=O)[C@H](CCCCN)NC(=O)[C@H](CCCCN)NC(=O)[C@H]([C@@H](C)CC)NC(=O)[C@H]([C@@H](C)CC)NC(=O)[C@H](CCCCN)NC(=O)[C@H](CCCCN)NC(=O)[C@H](Cc2ccc(O)cc2)NC(=O)[C@H](CC(C)C)NC(=O)[C@@H]2CCCN2C(=O)CNC(=O)CNC(=O)[C@@H](NC(=O)CN)CSSC[C@@H](C(=O)O)NC(=O)[C@H](CC(C)C)NC(=O)[C@H](CCCCN)NC(=O)[C@H](CCCCN)NC(=O)[C@H]([C@@H](C)CC)NC1=O` gave an HC10 of 74.7 ± 3.5 µM (hemolysis; uninfected human erythrocytes; 1 h).
With `CCN(Cc1ccccc1)C(=O)CCc1nc(CN2CCN(C(=O)Cc3ccc(OC)c(OC)c3)CC2)no1` the concentration was < 0.25 ng/mL (rat, plasma; intravenous, 1 mg/kg, 2 h).
For `CC[C@H](C)C(=O)N1CCC(NC(=O)Nc2ccc(OC(F)(F)F)c(F)c2)CC1`, “subjects with serious TEAE” read 0% (healthy volunteers; oral, 2 mg single dose).
`[2H]C([2H])([2H])C([2H])([2H])C([2H])([2H])OC(C(=O)OC1CCNCC1)(c1ccccc1)c1ccccc1` has an adverse events of 14.3% (item: upper respiratory tract infection; healthy Japanese male; oral, 12 mg once daily, 16 days).
`CCCCCCCCCCCCC(=O)O.O=C1CCCC2C3CCCN4CCCC(CN12)C34` (stereo not shown): “standard enthalpy of micellization” -4.67 kJ/mol (electrical conductivity; water; 298.15 K, critical micelle concentration).
`COC(=O)C[C@](O)(CCCC(C)(C)OC(C)=O)C(=O)O[C@@H]1C(OC)=C[C@]23CCCN2CCc2cc4c(cc2[C@H]13)OCO4` — result for tissue concentration: “not detected” (CD1 mouse, heart; subcutaneous, 1 mg/kg, 8 h, below quantification limit 1.00 ng/mL).
`CCCCCCCC(=O)OC[C@H](NC(=O)[C@H](CO)NC(=O)CN)C(=O)N[C@@H](Cc1ccccc1)C(=O)N[C@@H](CC(C)C)C(=O)N[C@@H](CO)C(=O)N1CCC[C@H]1C(=O)N[C@@H](CCC(=O)O)C(=O)N[C@@H](Cc1cnc[nH]1)C(=O)N[C@@H](CCC(N)=O)C(=O)N[C@@H](CCCNC(=N)N)C(=O)N[C@H](C(=O)N[C@@H](CCC(N)=O)C(=O)N[C@@H](CCC(N)=O)C(=O)N[C@@H](CCCNC(=N)N)C(=O)N[C@@H](CCCCN)C(=O)N[C@@H](CCC(=O)O)C(=O)N[C@@H](CO)C(=O)N[C@@H](CCCCN)C(=O)N[C@@H](CCCCN)C(=O)N1CCC[C@H]1C(=O)N1CCC[C@H]1C(=O)N[C@@H](C)C(=O)N[C@@H](CCCCN)C(=O)N[C@@H](CC(C)C)C(=O)N[C@@H](CCC(N)=O)C(=O)N1CCC[C@H]1C(=O)N[C@@H](CCCNC(=N)N)C(=O)O)C(C)C` — result for “mean residence time”: 107 ± 11 min (item: DAG; human, plasma; intravenous infusion, 1 µg/kg/h, 210 min).
`CN(C)C(CNC(=O)Nc1cc(C(F)(F)F)ccc1N1CCOCC1)c1ccncc1` (stereo not shown) — result for “serum total CO2”: 21 mmol/L (mouse, serum; intraperitoneal, 180 mg/kg single dose).
`NS(=O)(=O)NCC(F)(F)c1ccccc1F` has a therapeutic index of 4.3 (maximal electroshock test; mouse; ip; baseline: rotarod TD50 over MES ED50).
`O=P1(NCCCl)NCCCO1` (stereo not shown) has an MRT(0-inf) of 5.88 ± 1.39 h (rat, plasma; intravenous, 10 mg/kg, with: ketoconazole 20 mg/kg oral 50 min before).
For `CC[C@H](C)[C@@H]1NC(=O)[C@H](CCCCN)NC(=O)[C@H](CCCCN)NC(=O)[C@H](Cc2ccc(O)cc2)NC(=O)[C@H](CC(C)C)NC(=O)[C@@H]2CCCN2C(=O)[C@H](C)NC(=O)CNC(=O)CNC(=O)[C@H](CO)NC(=O)CNC(=O)CNC(=O)[C@H](CO)NC(=O)[C@H](CCCCN)NC(=O)[C@H](CC(C)C)NC(=O)[C@H](CC(C)C)NC(=O)[C@H](CCCCN)NC(=O)[C@H](CCCNC(=N)N)NC(=O)[C@H]([C@@H](C)CC)NC(=O)[C@H]([C@@H](C)CC)NC(=O)[C@H](CCCCN)NC(=O)[C@H](CCCCN)NC(=O)[C@H](Cc2ccc(O)cc2)NC(=O)[C@H](CC(C)C)NC(=O)[C@@H]2CCCN2C(=O)CNC(=O)CNC(=O)[C@@H](NC(=O)CN)CSSC[C@@H](C(N)=O)NC(=O)[C@H](CC(C)C)NC(=O)[C@H](CCCCN)NC(=O)[C@H](CCCNC(=N)N)NC(=O)[C@H]([C@@H](C)CC)NC1=O`, the HC10 was 6.3 ± 1 µM (hemolysis; uninfected human erythrocytes; 1 h).
`N=C(N)NCc1ccc(C(=O)NCCCC[C@H](NC(=O)N[C@@H](CCC(=O)O)C(=O)O)C(=O)O)cc1[211At]` gave a tissue uptake of 2.87 ± 0.55 %ID/g (SCID mouse, PC-3 xenografts, stomach; 4 h).
The tissue uptake of `O=C(c1ccc(F)cc1)C1CCN(C2Cc3c(cccc3OCC[18F])CC2O)CC1` (single isomer, unassigned; (-)) is reported as 0.505 ± 0.069 %ID/g (Sprague-Dawley rat, male, spleen; intravenous, dose not given, 60 min).
For `C#Cc1c(F)ccc2cc(O)cc(-c3ncc4c(N5CC6CCC(C5)N6C(=O)CC(C)CC(=O)OCC)nc(OC[C@@]56CCCN5C[C@H](F)C6)nc4c3F)c12` (stereo partly shown), the compound remaining was 110% (chemical stability; simulated intestinal fluid; 1 µM, 30 min).
The LDL level of `Cc1ccc(/C=C/C(=O)O)cc1-c1cc2c(cc1C)C(C)(C)CCC2(C)C` is reported as 14 ± 7.5 mg/dL (Sprague-Dawley rat, male, plasma; oral, 100 mg/kg, 3 h, sesame oil vehicle).

Repeated from above:
The solubility of `O=P([O-])([O-])Oc1ccc(-c2cc(=S)ss2)cc1.[Na+].[Na+]` is reported as ~2.1 mg/mL (HPLC; water; 25 °C).
For `O=C(O)CCn1c(=O)oc2cc(Cl)c(Cl)cc21`, the intrinsic clearance was < 0.5 mL/min/g (rat liver microsomes).
For `CC[C@H](C)[C@@H]1NC(=O)[C@H](CCCCN)NC(=O)[C@H](CCCCN)NC(=O)[C@H](Cc2ccc(O)cc2)NC(=O)[C@H](CC(C)C)NC(=O)[C@@H]2CCCN2C(=O)[C@H](C)NC(=O)CNC(=O)CNC(=O)[C@H](CO)NC(=O)CNC(=O)CNC(=O)[C@H](CO)NC(=O)[C@H](CCCCN)NC(=O)[C@H](CC(C)C)NC(=O)[C@H](CC(C)C)NC(=O)[C@H](CCCCN)NC(=O)[C@H](CCCNC(=N)N)NC(=O)[C@H]([C@@H](C)CC)NC(=O)[C@H]([C@@H](C)CC)NC(=O)[C@H](CCCCN)NC(=O)[C@H](CCCCN)NC(=O)[C@H](Cc2ccc(O)cc2)NC(=O)[C@H](CC(C)C)NC(=O)[C@@H]2CCCN2C(=O)CNC(=O)CNC(=O)[C@@H](NC(=O)CN)CSSC[C@@H](C(N)=O)NC(=O)[C@H](CC(C)C)NC(=O)[C@H](CCCCN)NC(=O)[C@H](CCCNC(=N)N)NC(=O)[C@H]([C@@H](C)CC)NC1=O`, the HC10 was 6.3 ± 1 µM (hemolysis; uninfected human erythrocytes; 1 h).
`[2H]C([2H])([2H])C([2H])([2H])C([2H])([2H])OC(C(=O)OC1CCNCC1)(c1ccccc1)c1ccccc1` has an adverse events of 14.3% (item: upper respiratory tract infection; healthy Japanese male; oral, 12 mg once daily, 16 days).
The tissue uptake of `O=C(c1ccc(F)cc1)C1CCN(C2Cc3c(cccc3OCC[18F])CC2O)CC1` (single isomer, unassigned; (-)) is reported as 0.505 ± 0.069 %ID/g (Sprague-Dawley rat, male, spleen; intravenous, dose not given, 60 min).
